Measured values of several laboratories.
Every numbered part comes from another study and shows a few of its results, in no order.

Set 1 — technique: universal PBM; molecule type: double-stranded DNA, one strand shown; matrix: in vitro; tested at: 600 nM; direction: higher = stronger binding
Target: Sal-like protein 4, full length isoform A (SALL4, Homo sapiens, UniProt Q9UJQ4, residues 1-1053)
Sequence of UniProt Q9UJQ4 (whole entry, looked up): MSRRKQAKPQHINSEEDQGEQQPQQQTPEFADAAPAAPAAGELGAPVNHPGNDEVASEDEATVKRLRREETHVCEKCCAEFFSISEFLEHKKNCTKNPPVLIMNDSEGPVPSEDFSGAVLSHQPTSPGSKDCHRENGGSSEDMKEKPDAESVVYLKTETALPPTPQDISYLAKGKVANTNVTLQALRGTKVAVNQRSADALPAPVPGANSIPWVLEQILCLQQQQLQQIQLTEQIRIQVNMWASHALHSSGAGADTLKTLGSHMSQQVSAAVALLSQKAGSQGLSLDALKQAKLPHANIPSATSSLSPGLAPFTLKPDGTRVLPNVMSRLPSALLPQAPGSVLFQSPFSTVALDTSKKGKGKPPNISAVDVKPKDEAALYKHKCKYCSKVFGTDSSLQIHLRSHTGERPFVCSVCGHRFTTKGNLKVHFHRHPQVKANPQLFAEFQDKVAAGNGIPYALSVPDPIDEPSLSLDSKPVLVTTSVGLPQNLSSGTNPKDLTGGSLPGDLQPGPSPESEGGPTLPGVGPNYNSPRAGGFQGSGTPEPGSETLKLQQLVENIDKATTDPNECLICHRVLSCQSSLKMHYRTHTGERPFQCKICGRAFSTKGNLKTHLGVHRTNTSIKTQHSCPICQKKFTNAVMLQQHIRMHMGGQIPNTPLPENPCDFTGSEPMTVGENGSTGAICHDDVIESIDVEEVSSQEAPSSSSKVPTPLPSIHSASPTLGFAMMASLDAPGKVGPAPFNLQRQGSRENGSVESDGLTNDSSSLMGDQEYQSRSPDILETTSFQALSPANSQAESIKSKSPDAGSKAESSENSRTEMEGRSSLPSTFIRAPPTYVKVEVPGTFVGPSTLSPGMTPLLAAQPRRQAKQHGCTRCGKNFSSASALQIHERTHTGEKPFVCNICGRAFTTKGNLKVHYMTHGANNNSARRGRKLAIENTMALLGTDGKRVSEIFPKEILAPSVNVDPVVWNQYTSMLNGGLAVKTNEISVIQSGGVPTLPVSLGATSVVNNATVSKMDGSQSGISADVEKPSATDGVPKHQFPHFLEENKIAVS
Setting: 8-mer, flanks averaged, mean of replicates
Strand	E-score
AGGCTCAA	-0.034
ATAGCTGG	-0.125
AGCCCTAC	-0.0624
CACCATAA	0.265
GATGTCGA	-0.0197
CGGGTTCA	-0.239
CGGATACA	0.0361
ATGGTAGA	0.113
CACCTTCC	-0.203
GTGGGGTA	-0.0633
AGACGAAA	0.181
ATACATTG	0.215
ATCTGTTG	-0.0346
AGAGACCG	-0.258
TGGTGACA	0.024
ACCCGTAC	-0.172
ACTCTTAT	0.313
CAACCCGA	-0.152
TAAAAGTA	0.294
CTGATGTC	0.0106
GCGCTTAC	-0.188
AAAGACTT	0.225
CTGCTACA	-0.0289

Set 2 — technique: RNA Bind-n-Seq; molecule type: RNA; matrix: in vitro; tested at: 1 µM; setting: whole 134-nt RNA, ends assumed; with: 150 mM KCl; baseline: input library; direction: higher = stronger binding
Target: Ras GTPase-activating protein-binding protein 1, C-terminal RGG region (G3BP1, Homo sapiens, UniProt Q13283)
Sequence of UniProt Q13283 (whole entry, looked up): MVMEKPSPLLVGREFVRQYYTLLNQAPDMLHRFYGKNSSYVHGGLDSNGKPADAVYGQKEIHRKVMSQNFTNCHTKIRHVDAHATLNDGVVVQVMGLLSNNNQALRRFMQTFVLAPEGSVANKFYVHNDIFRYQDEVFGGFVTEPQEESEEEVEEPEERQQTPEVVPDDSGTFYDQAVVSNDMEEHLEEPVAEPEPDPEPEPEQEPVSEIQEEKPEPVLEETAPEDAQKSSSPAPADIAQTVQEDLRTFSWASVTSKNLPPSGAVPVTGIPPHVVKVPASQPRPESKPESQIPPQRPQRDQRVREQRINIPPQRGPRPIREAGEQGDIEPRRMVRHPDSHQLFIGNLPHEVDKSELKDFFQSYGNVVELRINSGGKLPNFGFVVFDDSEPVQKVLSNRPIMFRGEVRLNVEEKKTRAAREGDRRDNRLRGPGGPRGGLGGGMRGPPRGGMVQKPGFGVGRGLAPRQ
Strand	log2 enrichment
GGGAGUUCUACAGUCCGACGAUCUGGCCCUGGUGGCAUGCGGGAAGGAAGAGGUGGCCUCAUGGAUCGUGGUGGUCCCGGUGGAAUGUUCAGAGGUGGCCGUGGUGGAGACAGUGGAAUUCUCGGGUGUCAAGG	2.12
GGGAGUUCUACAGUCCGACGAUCCUCAAGUCCUGUGCUACACAUCGUAUGUACCGAAUCGGGAGGGUUUGGGUGGGAAAGUAUUAUGUUACGCCGUUCGGAUCUGCACUUCCAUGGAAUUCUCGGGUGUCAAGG	1.86
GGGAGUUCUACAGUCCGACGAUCUGUCAGGAUUAUGAAGAAGCUGUGCUCUUGCUGUUAGAAGGAGCUGCCUGGGAAGAAGCUUUGAGGCUGGUAAGAAUCUUGUAAAUCCUCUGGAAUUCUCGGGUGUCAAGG	-1.69
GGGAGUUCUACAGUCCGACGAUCUACUAUCAAACAAUCGGAAACCACGCGUCCUACUACAAAGAUGCUCUGCGGUUUUUGGGCUGUGUUGACAUCAAGGAUCUACCAGGUAACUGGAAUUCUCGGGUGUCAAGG	-1.1
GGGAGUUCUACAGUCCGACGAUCUGUGCUACACAUCGUAUGUACCGAAUCGGGGUUUUUUUGGGGAAAAAAAGGGGUUUUUGGGGAAAGUAUUAUGUUACGCCGUUCGGAUCUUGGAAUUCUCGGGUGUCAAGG	0.174
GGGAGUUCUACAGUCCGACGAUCAAGUCCUGUGCUACACAUCGUAUGUACCGAAUCGGGAGGGAAAGGGUUUUUUUGGGAAAGUAUUAUGUUACGCCGUUCGGAUCUGCACUUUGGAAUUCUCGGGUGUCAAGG	0.562
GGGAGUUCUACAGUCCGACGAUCCCUCAAGUCCUGUGCUACACAUCGUAUGUACCGAAUCGGGGAGGGGAGGAGGAAAGUAUUAUGUUACGCCGUUCGGAUCUGCACUUCCAGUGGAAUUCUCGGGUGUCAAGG	-0.643
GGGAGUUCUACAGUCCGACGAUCUCCUGUGCUACACAUCGUAUGUACCGAAUCGGAAAAAAGGGGAAAAAAGGGAAAAAAGGAAAGUAUUAUGUUACGCCGUUCGGAUCUGCAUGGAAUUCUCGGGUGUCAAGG	-1.31
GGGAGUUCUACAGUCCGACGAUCGUCCUGUGCUACACAUCGUAUGUACCGAAUCGGGAAAAAAGGAAAAAAGGGAAAAAAGGAAAGUAUUAUGUUACGCCGUUCGGAUCUGCAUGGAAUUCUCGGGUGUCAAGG	-1.72

Set 3 — technique: RNA Bind-n-Seq; molecule type: RNA; matrix: in vitro; tested at: 365 nM; baseline: no-protein control; direction: higher = stronger binding
Target: RNA binding protein fox-1 homolog 2, RRM domain, GST-SBP tag (RBFOX2, Homo sapiens, UniProt O43251-10, residues 100-194)
Setting: natural RNA segment, single round, ends assumed
Construct (chain): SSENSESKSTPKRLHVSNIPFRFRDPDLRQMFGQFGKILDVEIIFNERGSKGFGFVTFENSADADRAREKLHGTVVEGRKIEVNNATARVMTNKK
Strand	RBNS enrichment (R)
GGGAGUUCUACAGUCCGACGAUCUUAUCAUUUAUUUAUUGGUGCUACUGUUUAUCCGUAAUAAUUGUGGGGAAAAGAUAUUAACAUCACGUCUUUGUCUCUAGUGCAGUUUUUCGAGAUAUUCCGUAGUACAUUGGAAUUCUCGGGUGCCAA	0.445
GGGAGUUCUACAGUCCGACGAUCGAGACCAGAGAGACUGUAGUUCCCUAUUUUAACCUCAAUUAUGCAUUUGUCCCCCAACCCCACUGAGAACUAAAUGCUGUACCACAGAGCCGGGUGUGAACUAUGGUUUAUGGAAUUCUCGGGUGCCAA	1.15
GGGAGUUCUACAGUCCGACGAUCUAAUUUUAAUAGAUAAUAAUCAUAAAAUAUGUAGAACAUUUUGUCAAUUUGCAAGAUAAGUUAUGGGUCACAUGAACAGUCAUGGCAUUUAGCACGUUAUAGGAAAUUAUUGGAAUUCUCGGGUGCCAA	4.38
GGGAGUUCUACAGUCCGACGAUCAUGAACCCCUGGCUCCUUCACCACCCCCACGAUUGGUAUGAUGCUGCCGGCACAGCUGGGAUACACACGGCUCCCCCAGGCCUGAGCUGCUUCACUAGGGAAUCCUGCGGUGGAAUUCUCGGGUGCCAA	0.412
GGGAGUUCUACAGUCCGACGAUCGGAUUUGGGGAGGGCCCUGAGGACCUGGCCCCGGGCAAGGGACUCUCCAGGCUCCUCCUCCCCCUGGCAGGCCCAGCAACAUGUGCCCCAGAUCUGGAAGGGCCUCCCUCUGGAAUUCUCGGGUGCCAA	0.229
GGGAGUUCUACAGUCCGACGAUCAAAACAAAUCUAAUGGUGCUUUUACCACAAUAUGUUAACUACAUUAAAUGCUAAUUAAUUAUUUUCUGUUAUCAAAGCACAUGACUAAAAUGAAAUCAUGGUAUCUGUUAUGGAAUUCUCGGGUGCCAA	0.452
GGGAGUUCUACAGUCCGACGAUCGUCUCCUGCUUUCAAAGGUUCUUAAUAGUGAAUGCUUUAAAAUUAAAGUCAUCACGAAAUGGAAGUUUUCCCAGGGUGGAAAAUAAGAGGAAGUGCUGCUGUAAUUGGGAUGGAAUUCUCGGGUGCCAA	0.332
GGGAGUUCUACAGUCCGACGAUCACCCCUUGGGCUAUGGACCCCAUUCCCUUGCCAUCACCCCCGCCAGUGGGUCUGCUUCACUGUGGAAGGAGAAACUGUGACUUUCUGGUUGCAUUACUGCAAAACAGCAAUGGAAUUCUCGGGUGCCAA	0.271

Set 4 — technique: protein binding microarray; molecule type: double-stranded DNA, one strand shown; matrix: in vitro; tested at: not given; baseline: not given; direction: higher = stronger binding
Target: Histone acetyltransferase KAT6A, winged helix 1, GST fusion (KAT6A, Homo sapiens, UniProt Q92794, residues 1-85)
Setting: 8-mer, flanks averaged, mean of 2 arrays, mostly near background
Residues (chain): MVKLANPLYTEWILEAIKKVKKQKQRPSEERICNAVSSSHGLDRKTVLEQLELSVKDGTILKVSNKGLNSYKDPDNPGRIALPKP
Strand	E-score
GTGACCAA	-0.112
CGCGCACG	0.425
CAAACCAA	-0.272
ACAGTGAG	-0.175
CAGACGGA	0.0983
ACCACGGT	-0.0113
AGTATTAT	-0.258
AAGTACCA	-0.0844
GGGGAACA	-0.149
AAAATTGG	-0.232
GCTTTTTA	0.0993
AAACTGGA	-0.234
ACTATAAC	-0.155
GGATACGA	-0.151
AGGCCCAG	-0.217
GACTATCA	-0.183
CACATGTG	0.0641
CCTAGACG	0.0053
AAGCTCGT	-0.242
CACCATAC	0.0539
CCTACGAC	-0.254
CTGGGAAC	-0.205

Set 5 — technique: RNA Bind-n-Seq; molecule type: RNA; matrix: in vitro; tested at: not given; baseline: input RNA pool; direction: higher = stronger binding
Target: RING finger protein unkempt homolog, zinc fingers 1-6, GST-SBP tag (UNK, Homo sapiens, UniProt Q9C0B0, residues 30-357)
Setting: RNA with constant flanks, human-mouse chimeric sites, ends assumed
Residues (chain): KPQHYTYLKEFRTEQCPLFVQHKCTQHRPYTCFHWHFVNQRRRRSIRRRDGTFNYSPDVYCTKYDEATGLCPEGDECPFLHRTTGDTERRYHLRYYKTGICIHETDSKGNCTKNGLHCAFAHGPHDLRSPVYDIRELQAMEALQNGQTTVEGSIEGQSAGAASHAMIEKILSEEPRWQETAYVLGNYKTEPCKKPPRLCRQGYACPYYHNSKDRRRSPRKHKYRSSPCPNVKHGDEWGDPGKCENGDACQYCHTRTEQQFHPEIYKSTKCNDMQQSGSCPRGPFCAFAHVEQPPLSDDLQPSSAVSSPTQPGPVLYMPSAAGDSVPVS
Strand	bound/input enrichment [ratio]
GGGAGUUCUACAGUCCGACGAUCGGAAGCACAUUAAUGGAGAUUGAUGGUGACAAAGGCAAGCAGGGCGGGCCCACCUACUACAUAGACACCAAUGCCCUCCGCGUGCCCAGGGAGAACAUGGAGGCCAUCUCACCACUCAAGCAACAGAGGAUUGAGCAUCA	0.261
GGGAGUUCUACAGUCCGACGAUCGAUAAGAAAAGCUUGUUGGAGACCCGCUUGCAUGUCACUGGUAGAGACCUGAGGUGUCAAAUAGCUGAAACUUUCGGACUUCAAGAAAAUUAUAUCAAGAUCGUAAUAAAUAAGAAACAGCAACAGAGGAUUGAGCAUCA	0.362
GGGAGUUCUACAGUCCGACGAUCACUCAGAGAUCCACCUCCCAAAGUGCUGGGAGUAAAGGUGUGGCCACCACACCUAACUUGAUGGAUAUUUUAUAAAGUUAAUAUGAAUCUUCCUGUUCUUCAUCCAGAGAAAGAUUUGUUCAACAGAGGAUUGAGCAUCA	0.163
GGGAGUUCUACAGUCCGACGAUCUUUCUACUGCAGCAAACGAUGCUAAGAGUGAAGGAUCCUAAGAAGUCCCUGGAUUUUUAUACGAGGGUUCUUGGACUGACGCUAAUCCAGAAGCUUGACUUCCCUGCUAUGAAGUUCUCGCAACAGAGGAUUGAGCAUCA	0.0541
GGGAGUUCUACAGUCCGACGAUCGGAUCUUUGGGACUGUUUUACUUAAUUGGUCAUUGAUAGCUUAACAAACAUGGAGAUAAGAUUAGAAAUCUUGACAUCAACAGGUAUUAAGCAGAAAAAACCAUGGCCCAGAGUAUCCUGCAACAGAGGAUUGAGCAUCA	0.169
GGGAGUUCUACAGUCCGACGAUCGGGGAGAAACCUUACGAGUGUGUGCAGUGUGGGAAAUCCUACAGUCAGAGCUCAAACCUCUUCAGACAUCAGAGAAGACACAAUGCAGAAAAACUUUUGAAUGUUGUGAAAGUUUAAGAACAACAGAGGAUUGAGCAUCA	0.403
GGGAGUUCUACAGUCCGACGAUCUGUAACUUAUCUGUAAAAGGUUCCCCCCCCUACUGUCCAAAAAAUAUGCAUGUAUAGUAAUUAGGACUUCAUUCCUCCAUGUUUUCUUCCCUUAUCUUACUGUCAUUGUCCUUAAACCUUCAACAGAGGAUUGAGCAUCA	1.91
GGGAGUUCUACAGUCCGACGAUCUGUAGUUUCUUGAUUUAGUGGCUGGGCCUUUUCUUUCUUUCCUUUAGGAAAAGCCUAAAGAUUAGACUGUAAGAAAAACAGAAGCCAUGUUUCGAAGACCUGUGUUACAGGUAUUUCGUCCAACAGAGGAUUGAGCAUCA	0.308

Excerpt of the above (set 4):
Strand	E-score
ACAGTGAG	-0.175
CAGACGGA	0.0983
ACCACGGT	-0.0113
AGTATTAT	-0.258
AAGTACCA	-0.0844
GGGGAACA	-0.149
AAAATTGG	-0.232
GCTTTTTA	0.0993
